Published values from different studies.
Each line is one published result; not all experiments were run side by side. ± gives the spread as reported.

The half-life of `C#C[C@]1(CO)O[C@@H](n2cnc3c(N)nc(F)nc32)C[C@@H]1O` is reported as 2920 min (human, plasma; oral, 30 mg, single dose, geometric mean).
`CC(C)[C@H](N)C(=O)NCCCS(=O)(=O)O` gave a half-life of 64.8 min (human, plasma; oral, 340 mg twice daily days 8-13, once daily day 14, day 14, fed, capsule).
`CC(C)NC(=O)COc1cccc(-c2nc(Nc3ccc4[nH]ncc4c3)c3ccccc3n2)c1` has a half-life of roughly 372 min (human male, plasma; oral, 200 mg, day 5, fed, alone, geometric mean).
`OC[C@H]1O[C@@H](c2ccc(Cl)c(Cc3ccc(O[C@H]4CCOC4)cc3)c2)[C@H](O)[C@@H](O)[C@@H]1O` has a half-life of 401 ± 48.6 min (human, plasma; oral, steady state, EV treatment).
`CC1(COc2ccc3c(c2)ncn3-c2ccc3cccc(N4CCC(N)CC4)c3n2)COC1` gave a half-life of 468 min (human patients, recurrent/progressive HGG or DIPG, serum; oral, 170 mg/m^2, day 1, median).
`CCN1CCN(Cc2ccc(Nc3ncc(F)c(-c4cc(F)c5nc6n(c5c4)[C@H](C)CCC6)n3)nc2)CC1` gave a half-life of 2530 min (human, plasma; 500 mg single dose, mean).
`CCn1c(=O)c(-c2cc(NC(=O)Nc3ccccc3)c(F)cc2Br)cc2cnc(NC)cc21` gave a half-life of 540 min (human, plasma; oral, 150 mg once daily, steady state).
With `C[C@H](O)c1cc(C(=O)N[C@@H](C)Cn2ccc(-c3ccc(C#N)c(Cl)c3)n2)n[nH]1` the half-life was 642 min (human, fasted; oral, 300 mg 14C-darolutamide solution, geometric mean).
With `C=CC(=O)N(C)CCOc1c(N)ncnc1-c1cc(F)cc(NC(=O)c2ccc(C3CC3)cc2F)c1C` the half-life was 54.6 min (human, whole blood; oral, 30 mg, single ascending dose, median).
For `Cc1ccc([C@@H]2O[C@H](CO)[C@@H](O)[C@H](O)[C@H]2O)cc1Cc1ccc(-c2ccc(F)cc2)s1`, the half-life was 684 min (human, maintenance hemodialysis patients; oral, 300 mg once daily, steady state, mean).
With `COc1ccc([C@@H](O)c2cc(-c3ncnc4cc(N5CCOCC5)ccc34)c(F)cc2Cl)nn1` the half-life was 376 min (human; oral, 200 mg twice daily, multiple doses).
The half-life of `CO[C@H]1C[C@@H]2CC[C@@H](C)[C@@](O)(O2)C(=O)C(=O)N2CCCC[C@H]2C(=O)O[C@H]([C@H](C)C[C@@H]2CC[C@@H](OC(=O)NCCOCCOCCOCCOCCOCCOCCOCCOCCC(=O)N3CCc4cc(Cn5nc(-c6ccc7oc(N)nc7c6)c6c(N)ncnc65)ccc4C3)[C@H](OC)C2)C[C@@H](O)[C@H](C)/C=C(\C)[C@@H](O)[C@@H](OC)C(=O)[C@H](C)C[C@H](C)/C=C/C=C/C=C/1C` is reported as 246 min (human patients, plasma; intravenous, 10 mg, cycle 1 day 15, 2 h infusion).
For `NC[C@@]1(CC(=O)O)[C@@H]2CC[C@H]3C[C@@H]2[C@@H]1C3`, the half-life was 676 min (human, severe renal impairment, plasma; oral, 20 mg single dose, geometric mean).
The half-life of `C#C[C@]1(COP(=O)(O)OP(=O)(O)O)O[C@@H](n2cnc3c(N)nc(F)nc32)C[C@@H]1O` is reported as 8280 min (item: islatravir triphosphate; human, PBMC; oral, 400 mg single dose).
`O=C(NC[C@H](O)CO)c1ccncc1Nc1ccc(I)cc1F` gave a half-life of roughly 360 min (human).
`CCOc1c([C@H](C)n2nc(C)c3c(N)ncnc32)cc(Cl)c(F)c1[C@@H]1CNC(=O)C1` gave a half-life of 690 ± 276 min (human patients, plasma; oral, 15 mg once daily, cycle 1 day 15, monotherapy).
For `CN(C)N=Nc1[nH]cnc1C(N)=O`, the half-life was 142 min (human patients, plasma; intravenous, 1000 mg/m^2 over 1 h, cycle 2 day 1, staggered with twice-weekly co-drug).
With `NCCCS(=O)(=O)O` the half-life was 2320 min (human, plasma; oral, 340 mg once daily, day 14, capsule, fasted, dosed days 8-14).
`CN(C)C(=O)c1cc2cnc(Nc3ccc(N4CCNCC4)cn3)nc2n1C1CCCC1` gave a half-life of 1600 ± 840 min (human, advanced solid tumours, plasma; oral).
`CN1CCC(COc2cnc(-c3cccc(Cn4nc(-c5cccc(C#N)c5)ccc4=O)c3)nc2)CC1` has a half-life of 2450 min (human; dose not given, geometric mean, with: itraconazole 200 mg once daily).
`N#Cc1cc(NC(=O)[C@H]2c3ccccc3C(=O)N(CC(F)(F)F)[C@@H]2c2cccnc2)ccc1F` has a half-life of 1040 min (human, plasma; oral, 150 mg, median).
For `O=C(COc1ccc(Cl)cc1)NC12CC(c3nnc([C@H]4C[C@@H](OC(F)(F)F)C4)o3)(C1)C2`, the half-life was 2540 min (healthy human volunteers fasted, plasma; oral, 800 mg single dose, geometric mean).
For `CC(=O)O[C@H]1C(=O)[C@@]2(C)[C@H]([C@H](OC(=O)c3ccccc3)[C@]3(O)C[C@H](OC(=O)[C@H](O)[C@@H](NC(=O)c4ccccc4)c4ccccc4)C(C)=C1C3(C)C)[C@]1(OC(C)=O)CO[C@@H]1C[C@@H]2O`, the half-life was 498 min (human, plasma; intravenous infusion, 80 mg/m^2, day 5, with oral co-drug daily).
The half-life of `Cc1noc(C)c1-c1cc(C(O)(c2ccccn2)c2ccccn2)c2nc(C3CC3)[nH]c2c1` is reported as 786 min (human patients, plasma; oral, 0.6 mg, cycle 1 day 8, monotherapy).
With `Cn1c(=O)oc2ccc(-c3ccc(C[C@@H](C#N)NC(=O)[C@@H]4CNCCCO4)cc3)cc21` the half-life was 2350 min (human, normal renal function, plasma; oral, 25 mg single dose, mean).
`Cc1nc(-c2ccc(OCC(C)C)c(C#N)c2)sc1C(=O)O` gave a half-life of 461 min (human; oral, 10 mg once daily, with: verinurad 0 mg).
`COC(=O)C(Cc1cccc(OC)c1C)NC(=O)CNCc1ccccc1` (stereo not drawn) has a half-life of greater than 120 min (human; 1 µM).
With `Cc1cc(OCCOCCC(F)(F)P(=O)(O)O)ccc1CCc1cnc2c(N)nc3cc(CCC(=O)O)ccc3c2c1` the half-life was 1640 min (human, serum; intratumoral, 400 µg every 2 weeks, cycle 1 day 1).
For `C[C@@H](Oc1ccc(S(C)(=O)=O)cc1C(=O)N1C[C@@H]2C[C@]2(c2cc(C(F)(F)F)on2)C1)C(F)(F)F`, the half-life was 2710 min (LC-MS/MS; young human subjects, plasma; oral, 10 mg once daily, steady state, multiple doses).
`CN(C(=O)C(C)(C)c1cc(C(F)(F)F)cc(C(F)(F)F)c1)c1cnc(N2C[C@H]3COCCN3C[C@H]2CO)cc1-c1ccc(F)cc1[14CH3]` has a half-life of 2780 min (item: total radioactivity; human, plasma; oral, 120 mg).
With `CO[C@@H]1[C@H](OC(=O)N2CC(CCN3CCOCC3)C2)CC[C@]2(CO2)[C@H]1[C@@]1(C)O[C@@H]1CC=C(C)C` the half-life was 28.8 ± 37.8 min (humans, plasma; subcutaneous, 0.2 mg twice weekly, first dose).
`CC(C)(Sc1ccncc1-c1ccc(C#N)c2ccccc12)C(=O)O` has a half-life of 888 min (human, plasma; oral, 2.5 mg once daily, with: febuxostat 20 mg).
For `CCNCc1cc(Nc2ccnc3cc(Cl)ccc23)ccc1O`, the half-life was 12000 min (human, both sexes, plasma; oral, dose not given, non-fixed combination).
For `O=C(O)CCC(=O)O.[2H]C([2H])([2H])Oc1cc(C)c2[nH]ccc2c1CN1CC[C@@H](C2CC2)C[C@H]1c1ccc(C(=O)O)cc1`, the half-life was 2000 min (LC-MS/MS, mean; human, plasma; 400 mg, single dose, fasting).
`CC(=O)c1c(C)c2cnc(Nc3ccc(N4CCNCC4)cn3)nc2n(C2CCCC2)c1=O` gave a half-life of 1380 min (noncompartmental LC-MS/MS; human patients, plasma; oral, 75 mg, cycle 1 day 15, with: neratinib 200 mg).
For `C=CC(=O)NC1CCN(c2ncc3ncnc(Nc4ccc(Oc5ccc6c(c5)ncn6C)c(C)c4)c3n2)CC1`, the half-life was 2180 min (human, male, plasma; oral, 30 mg single dose, fasted, geometric mean).
The half-life of `NC(=O)c1[nH]cnc1N` is reported as 156 min (human patients, plasma; IV infusion over 1 h, 1000 mg/m^2 DTIC, cycle 2 day 1, staggered with co-drug).
For `Cc1cc(C)c(CNC(=O)c2cc(Cl)c3c(c2C)O[C@@](C)([C@H]2CC[C@H](N(C)C)CC2)O3)c(=O)[nH]1`, the half-life was 1050 min (healthy male human, plasma; oral, 25 mg, alone, before itraconazole).
`Cn1cncc1[C@@](N)(c1ccc(Cl)cc1)c1ccc2c(c1)c(-c1cccc(Cl)c1)cc(=O)n2C` gave a half-life of 211 min (non-compartmental analysis; human, plasma; oral, 300 mg/m^2, median, expanded cohort, first cycle dose).
`C[C@@H](N)c1cc(Cl)ccc1Cn1c(=S)[nH]c(=O)c2[nH]ccc21` gave a half-life of roughly 3000 min (human, both sexes, matched healthy controls; oral, 2.5 mg single dose, geometric mean).
`CC(C)n1c(Nc2cccnc2)nc2cnc(Nc3ccc(N4CCN(C)CC4)cc3)nc21` has a half-life of 2390 min (human, male, plasma; oral, 100 mg, day 1, single dose alone).
The half-life of `C[C@H](Oc1ccc(Br)cc1-c1ccon1)C(=O)O` is reported as 309 min (LC-MS/MS, non-compartmental; human, plasma; 200 mg once daily, day 10, multiple ascending dose, mean).
`Nc1ccn([C@@H]2O[C@H](CO)[C@@H](O)C2(F)F)c(=O)n1` gave a half-life of 273 min (HPLC-UV; human, plasma; intravenous, 800 mg/m^2, mean, after paricalcitol).
The half-life of `COc1cc([C@H]2Oc3cc([C@H]4Oc5cc(O)cc(O)c5C(=O)[C@@H]4O)ccc3O[C@@H]2CO)ccc1O` is reported as 22.8 min (OATP1B1/1B3 humanized mice, plasma; oral gavage, 500 mg/kg silymarin).
The half-life of `COc1ncc(-c2nc3c(n2C(C)C)[C@H](c2ccc(Cl)cc2)N(c2cc(Cl)cn(C)c2=O)C3=O)c(OC)n1` is reported as 834 min (human, plasma; oral, 120 mg, C2D1, high-dose, median).
For `CC(C)=CCC/C(C)=C/CC/C(C)=C/CC[C@@](C)(O)CCC1=C(C)C(=O)C(C)=C(C)C1=O`, the half-life was 732 min (healthy human, plasma; oral, 400 mg, with: itraconazole 200 mg).
`Cc1nc(Nc2ncc(C(=O)Nc3c(C)cccc3Cl)s2)cc(N2CCN(CCO)CC2)n1` gave a half-life of 300 ± 48 min (human patients; oral, 85 mg/m^2, day 42).
`N#CCNC(=O)c1ccc(-c2ccnc(Nc3ccc(N4CCOCC4)cc3)n2)cc1` has a half-life of 344 min (healthy human volunteers, plasma; oral, day 4, without rifampin).

Excerpt of the above:
For `NC[C@@]1(CC(=O)O)[C@@H]2CC[C@H]3C[C@@H]2[C@@H]1C3`, the half-life was 676 min (human, severe renal impairment, plasma; oral, 20 mg single dose, geometric mean).
`CCOc1c([C@H](C)n2nc(C)c3c(N)ncnc32)cc(Cl)c(F)c1[C@@H]1CNC(=O)C1` gave a half-life of 690 ± 276 min (human patients, plasma; oral, 15 mg once daily, cycle 1 day 15, monotherapy).
